Measured values gathered from unrelated publications.
Each line is one published result; not all experiments were run side by side. ± marks the error that the study gave.
Cell line: Hep3B

| Structure (SMILES) | assay | setting | measurement | result |
| --- | --- | --- | --- | --- |
| CC1(C)CCCC(C)(C2CCC3(C)C2C(O)CC2C4(C)CCC(OC(=O)Nc5ccccc5)C(C)(C)C4C(OC(=O)Nc4ccccc4)CC23C)O1 (stereo not drawn) | HRE reporter gene, inhibitor | 24 h, hypoxia | IC50 | 15.86 ± 0.12 µM |
| CCOC(=O)/C=C/C(=O)NNC(=O)c1cc2ccccc2cn1 | HIF-1α induction, immunoblot | 6 h | minimum effective concentration | 25 µM |
| CC1(C)CCCC(C)(C2CCC3(C)C2C(O)CC2C4(C)CCC(OC(=O)NCc5ccccc5)C(C)(C)C4C(O)CC23C)O1 (stereo not drawn) | HRE reporter gene, inhibitor | 24 h, hypoxia | IC50 | 11.22 ± 0.08 µM |
| Cc1ccc(NC(=O)c2cccc(C(F)(F)F)c2)cc1N1Cc2cnc(N)nc2N(C)C1=O | cell growth or viability, ATP luminescence | 72 h | GI50 | 2.7 µM |
| COC1=C(OC)C(O)C(CC=C(C)CCC=C(C)CCC=C(C)C(=O)O)C(C)C1=O (stereo not drawn) | cell growth or viability, MTS | 72 h | IC50 | > 25 µM |
| Cc1ccc(Nc2ncc3c(n2)N(C)C(=O)N(c2cc(NC(=O)c4ccc(CN5CCN(C)CC5)c(C(F)(F)F)c4)ccc2C)C3)cn1 | cell growth or viability, ATP luminescence | 72 h | GI50 | 0.35 µM |
| CC1(C)CCCC(C)(C2CCC3(C)C2C(O)CC2C4(C)CCC(OC(=O)NCc5ccccc5)C(C)(C)C4C(OC(=O)NCc4ccccc4)CC23C)O1 (stereo not drawn) | HRE reporter gene, inhibitor | 24 h, hypoxia | IC50 | > 30 µM |
| Cc1ccc(NC(=O)c2cccc(C(F)(F)F)c2)cc1N1Cc2cnc(Nc3ccccc3)nc2N(C)C1=O | cell growth or viability, ATP luminescence | 72 h | GI50 | 0.847 µM |
| O=[N+]([O-])c1c(Nc2cc(F)cc(Cl)c2)ccc2nonc12 | refers to: PGK1 | 1 or 10 µM, 6 or 12 h, 1% O2 | mRNA level | no effect |

Some of these lines once more:
| Structure (SMILES) | assay | setting | measurement | result |
| --- | --- | --- | --- | --- |
| Cc1ccc(Nc2ncc3c(n2)N(C)C(=O)N(c2cc(NC(=O)c4ccc(CN5CCN(C)CC5)c(C(F)(F)F)c4)ccc2C)C3)cn1 | cell growth or viability, ATP luminescence | 72 h | GI50 | 0.35 µM |
